Measured values from different studies.
Protocols differ between the studies behind these lines. “And” joins repeats or separate records; there may be more than shown.
Target: Dual specificity protein kinase CLK2 (CLK2, Homo sapiens, UniProt P49760)

C=CC(=O)Nc1cc(-c2nn(C3CCN(CCNC(=O)[C@H](C)CCC45CC6CC(CC(C6)C4)C5)CC3)c3ncnc(N)c23)ccc1Oc1ccccc1  inhibition (inhibitor, KiNativ profiling; biochemical; 2 µM): 21.6%
C=CC(=O)Nc1cccc(-c2cnc3[nH]cc(C(=O)NC(C)(C)C)c3n2)c1  inhibition (kinase activity; 0.1 µM): 73% and 75%
C=CC(=O)N1Cc2nc(-c3cc(-c4cc(Cl)cnc4Cl)c(F)cc3F)n(-c3ccncn3)c2C1  inhibition (cell-free assay, inhibitor; 1 µM): 1%
CN1CCN(Cc2ccc(-c3ccc(CO[C@H]4CCC[C@@H]4NC(=O)c4cc(-c5cnn(C)c5)cnc4N)cc3)cc2)CC1  inhibition (enzyme activity, inhibitor; 0.1 µM): 3%
CNC(=O)C1CCN(c2cc(C)c(F)cc2NC(=O)c2ccc(-c3cc(O)ccc3C)c(C)c2)CC1  remaining binding (binding, competition with immobilised ligand; 1 µM): 97%
Nc1ncc(-c2cc(-c3cnn(CC(F)(F)F)c3)ncc2F)nc1C(=O)NC1CNCC(F)C1 (stereo not shown)  remaining activity (enzyme activity; 1 µM; relative to: DMSO control): 50.9%
CCn1cc(C(=O)O)c(=O)c2c(N)c(F)c(NC3CCCCC3)cc21  inhibition (kinase activity; 0.1 µM, added: ATP at Km): -7.8%
O=C=[N][Ru-4]123([n]4c5ccc(O)cc5c5c6c(c7cc(F)c[n+]1c7c54)C(=O)NC6=O)[S+]1CC[S+]2CC[S+]3CC1 (stereo not shown)  remaining activity (enzyme activity; 100 nM, human enzyme, added: 10 µM ATP; relative to: untreated): 2%
CN1CC[C@@H](COc2cnc(C#N)cc2-c2ccn3nc(NC(=O)C4CC4)cc3c2)C1  inhibition (enzyme activity, inhibitor; 1 µM): 16%
C=CC(=O)N1CCc2ccc(-n3c(=O)ccc4cnc5ccc(-c6cnn(C)c6)cc5c43)cc21  remaining binding (KINOMEscan; 1 µM; relative to: DMSO control): 86%
Cc1cnc2nc1Nc1cccc(c1)COC/C=C/COCc1cc(ccc1OCCN1CCOCC1)N2  remaining binding (binding; 0.1 µM): 90%
Cc1cc(NC(=O)[C@H](O)c2cc(F)cc(F)c2)ccc1-c1cnc(N)c(C(=O)NC(C)C)c1  remaining binding (binding, competition with immobilised ligand; 10 µM): 34%
COc1cc(Nc2nc(C)cc(-c3cnn4nc(OC)ccc34)n2)cc(C(F)(F)F)c1  remaining binding (binding, competition with immobilised ligand; 1 µM): 96%
COc1c(Cl)cccc1Nc1c(-c2ccncc2C#C[C@@]2(C)CCCN2C(=O)/C=C/CN(C)C)[nH]c2c1C(=O)NCC2  remaining binding (binding, competition with immobilised ligand; 3 µM): 83%
NC(=O)C[C@H]1CCc2sc3ncnc(O[C@H]4CC[C@H](N5CCOCC5)CC4)c3c21  inhibition (enzyme activity, inhibitor; 10 µM): 89%
Cc1cccc(O[C@H]2CCC[C@@H](C(C)CNCc3ccncc3)C2)c1 (relative stereo)  inhibition (enzyme activity, inhibitor; 1 µM): -1%

Repeated from above:
Cc1cnc2nc1Nc1cccc(c1)COC/C=C/COCc1cc(ccc1OCCN1CCOCC1)N2  remaining binding (binding; 0.1 µM): 90%
Cc1cc(NC(=O)[C@H](O)c2cc(F)cc(F)c2)ccc1-c1cnc(N)c(C(=O)NC(C)C)c1  remaining binding (binding, competition with immobilised ligand; 10 µM): 34%
COc1cc(Nc2nc(C)cc(-c3cnn4nc(OC)ccc34)n2)cc(C(F)(F)F)c1  remaining binding (binding, competition with immobilised ligand; 1 µM): 96%
